Results pooled from the literature.
Compare with care: the assays were run in different laboratories. Values joined by “and” are separate records of one study, mostly repeats; a detail may differ. ± marks the error that the study gave.

CCOc1cc(-c2nncn2C)ccc1Nc1ncc2cc(C)nc(N3CC(C)(C#N)C3)c2n1
GI50 (CAL-51; cell growth; 72 h): 280 nM

O=C(/C=C/C=C/C=C/C1CCCCC1)NC1=C[C@@](O)(/C=C/C=C/C=C/C(=O)NC2=C(O)CCC2=O)[C@@H]2O[C@@H]2C1=O
GI50 (MKN-45; cell growth, CellTiter-Glo; 78 h): 18600 nM

CC[C@H](C)C(=O)O[C@H]1CCC=C2C=C[C@H](C)[C@H](CC[C@@H]3C[C@@H](O)CC(=O)O3)[C@H]21
inhibition (BT-16; cell viability, MTT; 10 µM, 72 h): 94%

O=P1(C2CCCCC2)CCCCC1
reduction of cell number (PC-3; trypan blue; IC50, 72 h; relative to: untreated): 67%

CC(C)C[C@H](NC(=O)C[C@H](O)[C@H](CC(C)C)NC(=O)[C@H](Cc1c[nH]cn1)NC(=O)CNC(=O)[C@@H](NC(=O)[C@H](C)NC(=O)[C@H](Cc1c[nH]c2ccccc12)NC(=O)[C@H](CCC(N)=O)NC(=O)[C@@H](Cc1ccccc1)NC(=O)COCCOCCNC(=O)CCC(C(=O)O)N1CCN(CC(=O)O)CCN(CC(=O)O)CCN(CC(=O)O)CC1)C(C)C)C(N)=O (some centres unmarked) [lutetium-177 labelled]
tissue uptake (BALB/c nu/nu mice, pancreas; intravenous, 100 pmol, 1 h, together with: PA 300 µg): 6.5 ± 0.8 %ID/g

C=CC(=O)N1CCC(Oc2cc3c(Nc4ccc(Cl)c(Cl)c4F)ncnc3cc2OC)CC1
IC50 (NCI-H2073 ASV knock-in; cell proliferation, CellTiter-Glo; 72 h, geometric mean): 1.63 nM

COc1ccc(NC(=S)N/N=C/c2cccc3cc4ccccc4nc23)cc1
mitochondrial membrane potential (HeLa; TMRE flow cytometry; IC50, 48 h, unit not given, together with: N-acetylcysteine; relative to: DMSO control): 1.54 ± 2.36

CC/C(=N\NC(=O)NCc1cccc(O)c1)c1ccc(O)c(C)c1O
TAZ protein level (SK-OV-3; Western blot; 2D culture; 5 µM, 1 h, unit not given; relative to: β-actin): 1.43 ± 0.47

Cn1cc(Nc2nccc(-c3ccc4c(c3)CN(C3COC3)CC[C@H]4NC(=O)c3cn(C(C)(C)C)nn3)n2)cn1
pathway activation z-score (mouse splenic B cells; item: LPS-stimulated MAPK signalling; 30 mg/kg, IgD-activated in vivo; relative to: vehicle, direction not given): 2.14

Nc1cccc2c1C(=O)N(C1CCC(=O)NC1=O)C2=O (centres unmarked)
surface marker level (RPMI-8226; flow cytometry, item: CD43; concentration not given; relative to: comparator compound alone): 50.5%

Oc1nc2nonc2cc1Nc1ccccc1F
activity (L6; concentration not given): inactive

O=C([O-])c1ccccc1O.[Na+]
osteoclastogenesis (mouse bone marrow macrophages; 3 mM, together with: RANKL and, tet-CR4-WHD; relative to: RANKL alone): 43.9%

CC(C)C[C@@H](C=O)NC(=O)[C@H](CC(C)C)NC(=O)[C@H](CC(C)C)NC(=O)OCc1ccccc1
HA-FLuc protein level (HEK293 expressing HA-FLuc; western blot; total extract; concentration not given, unit not given; relative to: mock): 1.08

Cc1cc(Nc2ncc(Cl)c(Nc3ccccc3S(=O)(=O)C(C)C)n2)c(OC(C)C)cc1C1CCNCC1
log2 fold change (CLB-GE; phosphoproteomics LC-MS/MS, item: MAPK3 phosphorylation; 200 nM, 60 min; relative to: untreated): -1.79

C=Cc1c2[n-]c(c1C)/C=c1\[n-]/c(c(C)c1C=C)=C\c1[n-]c(c(CCC(=O)O)c1C)/C=c1\[n-]c(c(C)c1CCC(=O)O)=C2.[Sn+4]
fold change (SH-SY5Y; RNA-seq, item: LDLR mRNA; 5 µM, 5 h; relative to: untreated cells): 1.9

Cl.Cl.N=C(NCCCCCCNC(=N)NC(=N)Nc1ccc(Cl)cc1)NC(=N)Nc1ccc(Cl)cc1
inhibition (BT-16; cell viability, MTT; 10 µM, 72 h): 88.2%

CC1(C)CCC(CN2CCN(c3ccc(C(=O)NS(=O)(=O)c4ccc(NCC5CCOCC5)c([N+](=O)[O-])c4)c(Oc4cnc5[nH]ccc5c4)c3)CC2)=C(c2ccc(Cl)cc2)C1
late apoptotic cells (THP-1; annexin V/PI flow cytometry, item: annexin V+/PI+; 0.2 µM, 24 h): 1.9%

CCCCN1C[C@H](O)[C@@H](O)[C@@H](O)[C@H]1CO
IC50 (sample F patient fibroblasts; Gb3 level lowering, LC-MS/MS, item: Gb3 d18:1/24:1; 216 h): 8300 nM

Cc1nn(-c2nc3ccc(Cl)c(Cl)c3[nH]2)c(O)c1C1OC(=O)c2ccccc21 (centres unmarked)
inhibition (RAW-ISG; IFN luciferase reporter; 1.25 µM, together with: HT-DNA): 12.9% and 18% and 12.4% and 8.72% and 11.3% and 13.6%

Cn1cc(-n2cnc3c(NCc4nc5cc(Cl)c(Cl)cc5[nH]4)nc(N4CCOCC4)nc32)cn1
mRNA level (MDA-MB-231; qRT-PCR, item: ATM; 50 nM, 6 h, unit not given; relative to: untreated): 0.587

COC(=O)Nc1nc2ccc(C(=O)c3cccs3)cc2[nH]1
inhibition (BT-16; cell viability, MTT; 10 µM, 72 h): 90.9%

Cc1ccc(CNC(=O)Cn2cc(CSc3nc4ccccc4[nH]3)nn2)cc1
cytotoxicity (Caco-2; MTT; 500 ppm): 90.9%

COc1ccc(C[C@H](N)C(=O)N[C@H]2[C@@H](O)[C@H](n3cnc4c(N(C)C)ncnc43)O[C@@H]2CO)cc1.Cl.Cl
inhibition (BT-16; cell viability, MTT; 10 µM, 72 h): 93.8%

CC(C)NCC(O)c1ccc(O)c(O)c1 (centres unmarked)
sarcomere length (mouse ventricular cardiomyocytes; dose not given, 0.055 s): 1.8 µm

Nc1ncnc2c1ncn2[C@@H]1O[C@H](CO)[C@@H](O)[C@H]1O
viability (unstimulated human T cells; 3.16 µM, 72 h; higher = more viable cells): 82.3 a.u. and 76.8 a.u. and 84.2 a.u.

COc1cnc2cccc(N3CCc4c(cc(Cn5ccnc5C)cc4-c4cn(C)nc4C(F)(F)F)C3=O)c2c1
EC50 (COLO-320-HSR; cell growth, inhibitor; 120 h): 1500 nM

Cc1cc(C2CCCCC2)n(O)c(=O)c1
inhibition (BT-16; cell viability, MTT; 10 µM, 72 h): 86.6%

CCN(CCO)CCCC(C)Nc1ccnc2cc(Cl)ccc12 (centres unmarked)
inhibition (human PBMC; qRT-PCR, item: CXCL10 mRNA; 1000 nM, together with: ssRNA): 14 ± 24%

CC1(C)Oc2ccc(CC3=C(c4ccc(O)cc4)C(=O)NC3=O)cc2C[C@@H]1O
COX-2 mRNA level (RPTEC; qPCR; 10 µg/mL, 24 h, basal, no LPS): no effect

CCc1cnc(N2CCC(c3nc(COc4ccc(-n5cnnn5)cc4)cs3)CC2)nc1
normalized enrichment score (HEK-293T; RNA-seq GSEA, item: HALLMARK_IL2_STAT5_SIGNALING; concentration not given; direction not given): 1.08

Cc1cccc(-c2[nH]c(CNc3ccccc3F)nc2-c2ccc3ncnn3c2)n1
viability (bone marrow CD138+ myeloma cells; XTT; 3 µM, phenol red-free RPMI): 6%

CCn1cc(-c2cc(Cn3ccoc3=N)cc3c2CCN([C@@H](C)c2cc(OC)ccn2)C3=O)c(C(F)(F)F)n1
EC50 (OV-90; cell growth, inhibitor; 120 h): > 30000 nM

CC(C)(C)c1nc(-c2cccc(NS(=O)(=O)c3c(F)cccc3F)c2F)c(-c2ccnc(N)n2)s1
IC75 (SK-MEL-239 (BRAF V600E); ERK phosphorylation, Western blot; 1 h): 25 nM

C=CCn1c(=O)c2cnc(Nc3ccc(N4CCN(C)CC4)cc3)nc2n1-c1ccc2c(n1)[C@@](O)(CC)CC2
pHH3-negative cells (Kuramochi; flow cytometry; concentration not given): 93.7%

CC(C)C[C@H](NC(=O)[C@H](Cc1ccccc1)NC(=O)c1cnccn1)B(O)O
inhibition (BT-16; cell viability, MTT; 10 µM, 72 h): 94.6%

CSc1cc(Oc2ccnc3[nH]c(=O)cnc23)ccc1NC(=O)Nc1cc(C(C)(C)C)nn1-c1ccccc1
phospho ratio (patient-derived cell line clone B; RPPA, item: phosphorylated SAPK/JNK; human; 1 µM, 4 h; relative to: DMSO): 0.6

Cc1c(O)cccc1C(=O)N[C@@H](CSc1ccccc1)[C@H](O)CN1C[C@H]2CCCC[C@H]2C[C@H]1C(=O)NC(C)(C)C
maximal efficacy (ΔE-expressing cells; ΔE mislocalization, high-content imaging): 120%

O=c1[nH]nc(OCCCc2ccc(Cl)cc2)c(NCc2cccnc2)c1Br
normalized enrichment score (HEK-293T; RNA-seq GSEA, item: HALLMARK_HEME_METABOLISM; concentration not given; direction not given): 1.5

COc1cccc2c1C(=O)c1c(O)c3c(c(O)c1C2=O)C[C@@](O)(C(=O)CO)C[C@@H]3O[C@H]1C[C@H](N)[C@H](O)[C@H](C)O1
representative mode point of departure (HepG2; oxidative stress (ROS); 6 h): 0.00724 µM

COc1cc([C@@H]2c3cc4c(cc3[C@@H](O[C@@H]3O[C@@H]5CO[C@@H](C)O[C@H]5[C@H](O)[C@H]3O)[C@H]3COC(=O)[C@H]23)OCO4)cc(OC)c1O
G1 phase cells (HepG2 spheroids; flow cytometry; 1.7 µM, 96 h): 34.9 ± 5.28%

CC(=O)c1nn(-c2ccc(Cl)cc2)/c(=N/N=C(\C)c2ccc(NC(=O)c3ccccc3)cc2)s1
toxicity (HepG2; 0.625 µM): 97% and 96.2%

Cc1cc(NS(=O)(=O)c2ccc(NC(=O)/C(C#N)=C/c3ccc(N4CCCCC4)cc3)cc2)no1
S phase cells (HCT-116; propidium iodide flow cytometry; IC50, 48 h): 24.9%

CCn1cc(-c2cc(Cn3ccnc3)cc3c2CCN([C@H](c2cc(OC)ccn2)C2CC2)C3=O)c(C(F)(F)F)n1
EC50 (SH-10-TC; cell growth, inhibitor; 120 h): 16800 nM

Cc1ccc(C(=O)N(CCCN)[C@@H](c2nc3cc(Cl)ccc3c(=O)n2Cc2ccccc2)C(C)C)cc1
inhibition (BT-16; cell viability, MTT; 10 µM, 72 h): 94.9%

CCN1CCN(c2cc(N3CCN(CC)CC3)nc(NCCNc3ccnc4cc(Cl)ccc34)n2)CC1
autophagy flux (N27 rat dopaminergic cells; dose not given, 36 h): inhibited

CC(C)C[C@H](NC(=O)[C@@H](NC(=O)c1cccc(-c2ccccc2)n1)[C@@H](C)O)B(O)O
inhibition (BT-16; cell viability, MTT; 10 µM, 72 h): 94.2%

Cn1cc(-c2ccc(-c3cncc(Cl)c3N3CCC4(CCNC4=O)CC3)cc2)cn1
log2 fold change (COLO 205; gene expression, microarray, item: RPL37 mRNA; concentration not given, 6 h; relative to: untreated cells): 1.88
